Measurements pooled from the literature.
Compare with care: the assays were run in different laboratories. Values joined by “and” are separate records of one study, mostly repeats; a detail may differ. ± gives the spread as reported.
USP3 ZnF-UBD domain: Ubiquitin carboxyl-terminal hydrolase 3, ZnF-UBD domain (USP3, Homo sapiens, UniProt Q9Y6I4)
UniProt Q9Y6I4, sequence (whole entry, looked up): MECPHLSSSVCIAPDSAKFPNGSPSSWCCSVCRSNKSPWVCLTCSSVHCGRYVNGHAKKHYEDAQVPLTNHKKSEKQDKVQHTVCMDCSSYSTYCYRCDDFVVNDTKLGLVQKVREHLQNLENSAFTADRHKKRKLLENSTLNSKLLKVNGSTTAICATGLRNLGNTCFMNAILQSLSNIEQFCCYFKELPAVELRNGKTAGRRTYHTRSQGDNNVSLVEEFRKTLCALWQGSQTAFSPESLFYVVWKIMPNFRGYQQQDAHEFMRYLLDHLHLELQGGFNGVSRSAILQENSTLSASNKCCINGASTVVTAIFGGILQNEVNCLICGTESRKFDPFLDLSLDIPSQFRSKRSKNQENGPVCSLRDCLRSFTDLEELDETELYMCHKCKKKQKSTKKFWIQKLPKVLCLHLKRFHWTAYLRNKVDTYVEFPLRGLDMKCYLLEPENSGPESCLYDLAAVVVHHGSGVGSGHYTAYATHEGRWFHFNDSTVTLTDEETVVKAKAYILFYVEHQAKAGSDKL

Structure (SMILES)	target or system	assay	system	conditions	how to read	endpoint	result
O=C(NCCN1CCCC1=O)c1ccc(C2CCCCC2)cc1		liver microsome stability	cynomolgus liver microsomes	1 µM		hepatic clearance	41 mL/min/kg
O=C(O)CCCOc1ccc([18F])cc1-c1cc(-c2ccccc2C(F)(F)F)n(-c2ccccc2)n1		radio-TLC	ddY mice male, plasma	intravenous, 37 MBq, 15 min		unchanged fraction of radioactivity	90.7 ± 2%
CC(C)[C@H](NC(=O)[C@H](Cc1ccc(O)cc1)NC(=O)[C@H](Cc1ccc(O)cc1)NC(=O)[C@@H]1CCCN1C(=O)[C@H](CCC(=O)O)NC(=O)[C@H](CCC(=O)O)NC(=O)[C@H](Cc1c[nH]c2ccccc12)NC(=O)[C@@H]1CCCN1C(=O)[C@@H](NC(=O)[C@H](CCC(N)=O)NC(=O)c1ccc2c(c1)C(=O)OC21c2ccc(O)cc2Oc2cc(O)ccc21)C(C)C)C(=O)N[C@H](C(=O)N[C@@H](CCCCN)C(=O)N[C@@H](CCCCN)C(=O)N[C@@H](CO)C(=O)N[C@@H](CO)C(=O)NCC(=O)NCC(N)=O)C(C)C		refers to: total compound	human, plasma	intravenous infusion, 189.6 mg, 1 h		plasma concentration	1660 ng/mL
Cc1cc(C)c(CNC(=O)c2cc(Cl)c3c(c2C)O[C@@](C)([C@H]2CC[C@H](N(C)C)CC2)O3)c(=O)[nH]1		ultracentrifugation	glycoprotein, alpha-1-acid, 0.1%	10000 ng/mL, 160 min		fu	0.44
CC[C@@H]([C@H](C)O)n1ncn(-c2ccc(N3CCN(c4ccc(OC[C@@H]5CO[C@@](Cn6cncn6)(c6ccc(F)cc6F)C5)cc4)CC3)cc2)c1=O			rat plasma	1600 ng/mL, 3 h, room temperature	baseline: nominal concentration	stability relative error	0.3%
O=C(O)c1cc(O)c(O)c(O)c1			chicken broilers, serum	oral, 2000 mg/kg feed, free compound, chestnut tannin diet		serum concentration	~0.35 µM
O=C(Cc1cccnc1)Nc1ccc([C@H]2[C@@H](F)[C@@H](F)C[C@@H](F)[C@H]2F)cc1			cynomolgus liver microsomes	1 µM		hepatic clearance	4.9 mL/min/kg
O=C(O)CCn1ccccc1=O	USP3 ZnF-UBD domain					Kd	> 1 mM
CCc1c(-c2ccccc2)c(-c2ccccc2)nn1-c1ccccc1-c1cccc(OCC(=O)O)c1			Sprague-Dawley rat, stomach homogenate	oral, 10 mg/kg, 8 h		concentration	154 ng/mL and 119 ng/mL
CO[C@H]1C[C@@H]2CC[C@@H](C)[C@@](O)(O2)C(=O)C(=O)N2CCCC[C@H]2C(=O)O[C@H]([C@H](C)C[C@@H]2CC[C@@H](OC(=O)NCCOCCOCCOCCOCCOCCOCCOCCOCCC(=O)N3CCc4cc(Cn5nc(-c6ccc7oc(N)nc7c6)c6c(N)ncnc65)ccc4C3)[C@H](OC)C2)C[C@@H](O)[C@H](C)/C=C(\C)[C@@H](O)[C@@H](OC)C(=O)[C@H](C)C[C@H](C)/C=C/C=C/C=C/1C			human, plasma	intravenous, 10 mg, Cycle 1, 1 h infusion, arithmetic mean	baseline: Day 15 over Day 1	AUClast accumulation ratio	1.4
CCCCCNC(=O)N1CCC(CN(Cc2ccc(Cl)cc2)Cc2ccc([N+](=O)[O-])s2)C1 (centres unmarked)		refers to: MO%	C57BL/6 mouse, blood	100 mg/kg twice daily, 7 days		blood cell fraction	4.9 ± 0.7%
O=C(O)CCC(=O)O.[2H]C([2H])([2H])Oc1cc(C)c2[nH]ccc2c1CN1CC[C@@H](C2CC2)C[C@H]1c1ccc(C(=O)O)cc1		LC-MS/MS, median	human, plasma	100 mg, single dose, fasting		Tmax	4 h
COc1ccc2c(c1)CCN(C(=O)C1CCN(c3c(C#N)cnc4ccc(F)cc34)CC1)C2			rat liver microsomes			intrinsic clearance (scaled)	709 mL/min/kg
O=C(O)CCC(=O)Nc1ccccc1	USP3 ZnF-UBD domain					Kd	> 1 mM
C=CC(=O)NC1CCN(c2ncc3ncnc(Nc4ccc(Oc5ccc6c(c5)ncn6C)c(C)c4)c3n2)CC1			human, male, plasma	oral, 240 mg, fasted, adjusted geometric mean		AUC(0-tz)	47 µM·h
CC(C)C[C@H](NC(=O)[C@@H](N)C(C)C)C(=O)N[C@@H](CCCNC(=N)N)C(=O)N[C@@H](Cc1c[nH]c2ccccc12)C(=O)N[C@@H](CO)C(=O)N[C@@H](CCCNC(=N)N)C(=O)N[C@@H](CCCCN)C(=O)N[C@@H](CC(C)C)C(=O)N1CCC[C@H]1C(=O)N[C@@H](CS)C(=O)N[C@H](C(=O)N[C@@H](CO)C(N)=O)C(C)C		12G5 competition, SUP-T1 cells	human plasma	concentration not given, 8 h		remaining activity	7 ± 1%
CN1C(=O)[C@@H](NC(=O)c2nnc(Cc3ccccc3)[nH]2)COc2cccnc21			human, plasma	oral, 50 mg once daily, day 1, median		Tmax	3 h
CC(C)(C(=O)N1CCOc2c(C#N)cncc2C1)C(F)F		refers to: general and administration site conditions	healthy humans, both sexes	oral, 20 mg single dose		subjects with TEAE	0%
CCOc1c([C@H](C)n2nc(C)c3c(N)ncnc32)cc(Cl)c(F)c1[C@@H]1CNC(=O)C1		ECG	previously treated B-cell malignancy patients	oral, 5 mg once daily, baseline below thresholds		observations with HR ≤100 bpm	100%
CNCc1ccc(-c2[nH]c3cc(F)cc4c3c2CCNC4=O)cc1			human patients	oral, 360 mg twice daily, all grades		pulmonary embolism incidence	0%
Nc1ccn([C@@H]2O[C@H](CO)[C@@H](O)C2(F)F)c(=O)n1		HPLC-UV	human, plasma	800 mg/m^2, median, after paricalcitol		volume of distribution	251 L/m²
Cl.N=C(CC(O)c1cc2c(F)cc(F)cc2c2cc(C(F)(F)F)ccc12)Nc1ccc(Br)cc1 (centres unmarked)			human plasma	50 ng/mL, 24 h, 37 °C		degradation	46.5%
COCCC(=O)Nc1ccc(C2CCCCC2)cc1		hepatocyte stability	cryopreserved rat hepatocytes	1 µM		hepatic clearance	45 mL/min/kg
Cl.[2H]C([2H])([2H])CC(=O)c1cnc(NC(=O)C2CC2)cc1Nc1cccc(-c2ncn(C([2H])([2H])[2H])n2)c1OC		geometric mean	human	oral, 50 mg single dose, fasted, liquid		elimination rate constant	2.58e-05 s⁻¹
CN1CCN(C(=O)c2ccc([C@H]3[C@@H](F)[C@@H](F)C[C@@H](F)[C@H]3F)cc2)CC1		liver microsome stability	mouse liver microsomes	1 µM		hepatic clearance	48 mL/min/kg

Structure (SMILES)	target or system	assay	system	conditions	how to read	endpoint	result
CC[C@H](C)CCCCC(=O)N[C@@H](CCN)C(=O)N[C@H](C(=O)N[C@@H](CCN)C(=O)N[C@H]1CCNC(=O)[C@H]([C@@H](C)O)NC(=O)[C@H](CCN)NC(=O)[C@H](CCN)NC(=O)[C@H](CC(C)C)NC(=O)[C@@H](Cc2ccccc2)NC(=O)[C@H](CCN)NC1=O)[C@@H](C)O			long-term haemodialysis patients, plasma	IV, 0.75 mg/kg	baseline: healthy subjects	half-life prolongation	10 h
N#CCC(=O)Nc1ccc([C@H]2[C@@H](F)[C@@H](F)C[C@@H](F)[C@H]2F)cc1		liver microsome stability	dog liver microsomes	1 µM		hepatic clearance	14 mL/min/kg
O=C(Nc1nc2cccc(-c3ccc(CN4CCS(=O)(=O)CC4)cc3)n2n1)C1CC1		refers to: vascular disorders	rheumatoid arthritis patients	oral, 300 mg once daily, 4 weeks, any relatedness		treatment-emergent adverse events	0%
CNC(=O)c1ccc(-c2cnc3ncc(Cc4ccc5ncccc5c4)n3n2)cc1F		refers to: Diarrhea, all grades	gastric cancer patients	oral, 600 mg twice daily, expansion cohort, any causality		patients with adverse event	11%
O=C(Cc1ccc2ccccc2c1)Nc1cc(C2CCC2)[nH]n1			mouse liver S9			hepatic intrinsic clearance	120 ± 4.8 mL/min/kg
CN(C)CCC(=O)Nc1ccc(C2CCCCC2)cc1		liver microsome stability	mouse liver microsomes	1 µM		hepatic clearance	79 mL/min/kg
COc1ccc(-c2ncn(S(=O)(=O)c3cc(C(F)(F)F)cc(C(F)(F)F)c3)n2)cc1		chemical stability, HPLC-MS	borate buffered saline	pH 10.2, no N-acetyl-lysine		degradation rate constant	0.6 h⁻¹
C[C@@H](O)[C@@H](CO)NC(=O)[C@@H](CCCNC(=N)N)NC(=O)[C@@H]1CCCN1C(=O)[C@@H]1CSSC[C@H](NC(=O)[C@H](Cc2ccccc2)NC(=O)CN2CCN(CC(=O)O)CCN(CC(=O)O)CCN(CC(=O)O)CC2)C(=O)N[C@@H](Cc2ccc(O)cc2)C(=O)N[C@@H](Cc2ccccc2)C(=O)N[C@@H](CCC(N)=O)C(=O)N[C@@H](CC(N)=O)C(=O)N1 [gallium-68 labelled]			normal saline	4 h, room temperature		radiochemical purity	> 99%
CC(C)(C)NC(=O)C1CCN(Cc2cccc(/N=N/c3ccccc3F)c2)CC1			DMSO	25 µM, 25 °C		absorption maximum, cis isomer	430 nm
CCCCC1=NC2(CCCC2)C(=O)N1Cc1ccc(-c2ccccc2S(=O)(=O)Nc2noc(C)c2C)c(COCC)c1			healthy adult volunteers, plasma	oral, 1600 mg, single dose, fed, crushed tablet		Tmax	6 h
Oc1ccc(/C=C/c2cc(O)cc(O)c2)cc1			rat, azoxymethane-injected, blood at sacrifice	10 mg/kg		inorganic phosphorus	6.9 mg/dL and 6.2 mg/dL and 9 mg/dL
Cc1ccc([C@@H]2O[C@H](CO)[C@@H](O)[C@H](O)[C@H]2O)cc1Cc1ccc(-c2ccc(F)cc2)s1			human, maintenance hemodialysis patients	oral, 300 mg once daily, steady state, mean		volume of distribution	206 L
CCc1cc(C(=O)NC)c2nccc(N3CCc4c(cc(Cn5ccnc5)cc4-c4cn(C)nc4C(F)(F)F)C3=O)c2c1		refers to: CK	Sprague Dawley rat	oral, 100 mg/kg once daily, 7 days	baseline: vehicle	change in clinical chemistry or haematology parameter	-26.8%
O=C(O)[C@H]1O[C@@H](Oc2ccccc2)[C@H](O)[C@@H](O)[C@@H]1O		ultrafiltration	normal rat serum	37 °C		serum protein binding	35 ± 16%
Cc1cc(Nc2ccc(S(F)(F)(F)(F)F)cc2)n2nc(C(C)(F)F)nc2n1			CD-1 mouse, female, whole blood	oral, 300 mg/kg daily, 24 h after dose 10, spray-dried dispersion		blood concentration	140 ± 101 µM
COc1cc2c(Nc3ccc(Cl)c(Cl)c3F)ncnc2cc1OC[C@@H]1C[C@@H]2CN(C)C[C@@H]2C1			FVB Mdr1a/b(-/-) Bcrp1(-/-) mouse	oral, 70 mg/kg, 2 h		unbound brain concentration	10.9 ng/g
Cn1ncnc1[C@H]1c2n[nH]c(=O)c3cc(F)cc(c23)N[C@@H]1c1ccc(F)cc1			human patients, plasma	oral, 600 µg/m2 twice daily, day 1, monotherapy, dose level DL4, median		AUC(0-8h)	20.3 ng·h/mL
CC(C)(c1ccc(O)cc1)c1ccc(O)cc1			whole cow milk	2000 nM nominal		dose fraction in milk fat	39.4%
NC1(C(=O)N[C@@H](CCO)c2ccc(Cl)cc2)CCN(c2nc[nH]c3nccc2-3)CC1			metastatic CRPC patients	320 mg b.i.d., grade 3 to 4, treatment-related, together with: enzalutamide 160 mg daily		incidence of weight decreased	0%
O=C(NCc1cc[nH]n1)c1ccc([C@H]2[C@@H](F)[C@@H](F)C[C@@H](F)[C@H]2F)cc1		hepatocyte stability	cryopreserved mouse hepatocytes	1 µM		hepatic clearance	37 mL/min/kg
CCN1/C(=C/C(C)=O)Sc2ccc(F)cc21			cynomolgus monkey	oral, 30 mg/kg, 4 h post-dose	baseline: pre-dose	PR interval change	102 ± 2.2%
O=C(N[C@H](Cc1c[nH]c2ccccc12)C(=O)Nc1ccncc1)c1ccc(-c2ccc(F)c(C(F)(F)F)c2)cc1F			Swiss Webster mouse, female, intestine	oral, 50 mg/kg, 8 h, 20% HPβCD vehicle		concentration	11.5 µM
OC[C@H]1O[C@@H](c2ccc(Cl)c(Cc3ccc(O[C@H]4CCOC4)cc3)c2)[C@H](O)[C@@H](O)[C@@H]1O			Japanese type 1 diabetes patients, blood	10 mg, day 28	baseline: baseline	change in Potassium	-0.1 mEq/L
[18F]c1ccc(-c2ccc3c(c2)[nH]c2ccncc23)cn1		microPET/CT imaging	B6SJL mouse, normal, heart	intravenous, 20 min		SUV	0.632 ± 0.193
O=C1NCCc2nc(OCc3cccc(F)c3)ccc21		refers to: Writhing	Sprague-Dawley rat male	oral, 100 mg/kg, 4 h	direction not given	Irwin test score	0

Repeated from above:
Structure (SMILES)	target or system	assay	system	conditions	how to read	endpoint	result
COc1cc2c(Nc3ccc(Cl)c(Cl)c3F)ncnc2cc1OC[C@@H]1C[C@@H]2CN(C)C[C@@H]2C1			FVB Mdr1a/b(-/-) Bcrp1(-/-) mouse	oral, 70 mg/kg, 2 h		unbound brain concentration	10.9 ng/g
CNC(=O)c1ccc(-c2cnc3ncc(Cc4ccc5ncccc5c4)n3n2)cc1F		refers to: Diarrhea, all grades	gastric cancer patients	oral, 600 mg twice daily, expansion cohort, any causality		patients with adverse event	11%
CCc1cc(C(=O)NC)c2nccc(N3CCc4c(cc(Cn5ccnc5)cc4-c4cn(C)nc4C(F)(F)F)C3=O)c2c1		refers to: CK	Sprague Dawley rat	oral, 100 mg/kg once daily, 7 days	baseline: vehicle	change in clinical chemistry or haematology parameter	-26.8%
O=C(O)CCn1ccccc1=O	USP3 ZnF-UBD domain					Kd	> 1 mM
Cn1ncnc1[C@H]1c2n[nH]c(=O)c3cc(F)cc(c23)N[C@@H]1c1ccc(F)cc1			human patients, plasma	oral, 600 µg/m2 twice daily, day 1, monotherapy, dose level DL4, median		AUC(0-8h)	20.3 ng·h/mL
O=C(O)c1cc(O)c(O)c(O)c1			chicken broilers, serum	oral, 2000 mg/kg feed, free compound, chestnut tannin diet		serum concentration	~0.35 µM
[18F]c1ccc(-c2ccc3c(c2)[nH]c2ccncc23)cn1		microPET/CT imaging	B6SJL mouse, normal, heart	intravenous, 20 min		SUV	0.632 ± 0.193
CN1CCN(C(=O)c2ccc([C@H]3[C@@H](F)[C@@H](F)C[C@@H](F)[C@H]3F)cc2)CC1		liver microsome stability	mouse liver microsomes	1 µM		hepatic clearance	48 mL/min/kg
